{"data": "Measured values collected from several papers", "rep main protease": "Replicase polyprotein 1ab, main protease (rep, Severe acute respiratory syndrome coronavirus 2, UniProt P0DTD1)", "rep papain-like protease": "Replicase polyprotein 1ab, papain-like protease (rep, Severe acute respiratory syndrome coronavirus 2, UniProt P0DTD1)", "note": "Protocols differ between the studies behind these lines. Several values in a cell are separate wells, animals, samples, runs or records. ± gives the spread as reported."}
{"Structure (SMILES)": "O=C(Oc1cncc(Cl)c1)c1ccc2cc[nH]c2c1", "target": "rep main protease", "assay": "enzyme activity, inhibitor, fluorescence", "setting": "10 µM, pH 7.2", "inhibition": "100%"}
{"Structure (SMILES)": "C=C1CC[C@@H]2[C@](C)(COC(C)=O)[C@H](OC(C)=O)CC[C@@]2(C)[C@@H]1C[C@H](SC(=S)N1CCN(C(c2ccccc2)c2ccccc2)CC1)C1=CCOC1=O", "target": "rep main protease", "assay": "enzyme activity, inhibitor, fluorescence", "setting": "10 µM", "inhibition": "> 50%"}
{"Structure (SMILES)": "COc1cc(Oc2c(O)c(Cl)c(C)c(Cl)c2OC)c(C(=O)O)c(C)c1O", "target": "rep main protease", "assay": "enzyme activity, inhibitor, FRET", "setting": "10 µM", "inhibition": "22.9%"}
{"Structure (SMILES)": "C/C=C/C=C/C(=O)Nc1cccc(/C=C/C(=O)c2cccc(NC(=O)/C=C/C=C/C)c2)c1", "target": "rep main protease", "assay": "enzyme activity, inhibitor", "setting": "100 µM", "inhibition": "95.2%"}
{"Structure (SMILES)": "c1ccc([Se][Se]c2ccccc2)cc1", "target": "rep main protease", "assay": "enzyme activity, inhibitor", "setting": "40 µM, mean of repeats", "inhibition": "104%"}
{"Structure (SMILES)": "CCN1C(=O)CCC1c1c(O)cc(O)c2c1O[C@H](c1cc(O)c(O)c(O)c1)[C@H](OC(=O)c1cc(O)c(O)c(O)c1)C2 (some centres unmarked)", "target": "rep main protease", "assay": "intracellular protease activity", "system": "HEK293T", "setting": "100 µM", "inhibition": "93.66 ± 0.14%"}
{"Structure (SMILES)": "O=C(Oc1cncc(Cl)c1)c1cc2ccccc2[nH]1", "target": "rep main protease", "assay": "enzyme activity, inhibitor, fluorescence", "setting": "10 µM, pH 7.2", "inhibition": "100%"}
{"Structure (SMILES)": "COc1cc(OC)cc(C(=O)N(CCC(=O)N2CCNCC2)Cc2cccc(Cl)c2)c1", "target": "Replicase polyprotein 1ab, nsp3 macrodomain (rep, Severe acute respiratory syndrome coronavirus 2, UniProt P0DTD1)", "assay": "ADP-ribosylhydrolase activity, inhibitor, gel-based de-MARylation", "setting": "25 µM, SARS-CoV-2 Mac1", "inhibition": "6%"}
{"Structure (SMILES)": "C[C@](C(=O)NC1CCC(F)(F)CC1)(c1cncnc1)N(C(=O)[C@H](F)Cl)c1ccc(OC(F)(F)F)cc1", "target": "rep main protease", "assay": "enzyme activity, inhibitor", "setting": "0.309 µM", "inhibition": "97.5%"}
{"Structure (SMILES)": "O=C(O[C@@H]1[C@@H](O)[C@H](Oc2cc(O)c3c(c2)O[C@H](c2ccccc2)CC3=O)O[C@@H]2COC(=O)c3cc(O)c(O)c(O)c3-c3c(cc(O)c(O)c3O)C(=O)O[C@@H]12)c1cc(O)c(O)c(O)c1", "target": "rep main protease", "assay": "enzyme activity, inhibitor, mass spectrometry", "setting": "concentration not given", "inhibition": "inhibited"}
{"Structure (SMILES)": "COC(=O)[C@H](C)n1[se]c2ccccc2c1=O", "target": "rep main protease", "assay": "enzyme activity, inhibitor", "setting": "40 µM, mean of repeats", "inhibition": "105%"}
{"Structure (SMILES)": "CC(=O)Nc1ccc(-c2cnc(N3C(=O)C(Cl)C3c3cc4ccccc4nc3Cl)s2)cc1 (centres unmarked)", "target": "rep papain-like protease", "assay": "enzyme activity, inhibitor", "setting": "100 µM", "inhibition": "100%"}
{"Structure (SMILES)": "COc1ccc(NC(=O)Cn2c(=O)n(CCC(=O)NC3CCCC3)c(=O)c3cc(OC)c(OC)cc32)cc1", "target": "rep papain-like protease", "assay": "enzyme activity, inhibitor", "setting": "100 µg/mL", "inhibition": "0%"}
{"Structure (SMILES)": "O=C(c1ccc([N+](=O)[O-])c(-n2ccnc2)c1)N(c1cccc(Cl)c1)c1nc2ccccc2s1", "target": "rep main protease", "assay": "reporter gene, inhibitor", "system": "HEK293T", "setting": "10 µM, secondary screen, wild type", "inhibition": "9 ± 0.5%"}
{"Structure (SMILES)": "O=c1c2ccccc2[se]n1-c1ccc(Oc2ccccc2)cc1", "target": "rep main protease", "assay": "enzyme activity, inhibitor", "setting": "0.3 µM", "inhibition": "50.1%"}
{"Structure (SMILES)": "CC1(C)C=Cc2c(ccc(C3COc4cc(O)cc(O)c4C3=O)c2O)O1 (centres unmarked)", "target": "rep main protease", "assay": "enzyme activity, inhibitor", "setting": "8 µM", "inhibition": "66.9%"}
{"Structure (SMILES)": "CCOC(=O)CNC(=O)c1ccccc1[Se][Se]c1ccccc1C(=O)NCC(=O)OCC", "target": "rep main protease", "assay": "enzyme activity, inhibitor", "setting": "40 µM", "inhibition": "107% and 104%"}
{"Structure (SMILES)": "O=C(NC1CCC(F)(F)CC1)C(c1cncnc1)N(C(=O)C(F)Cl)c1ccc(-c2cncs2)cc1 (centres unmarked)", "target": "rep main protease", "assay": "enzyme activity, inhibitor", "setting": "0.103 µM", "inhibition": "86.1%"}
{"Structure (SMILES)": "CC(=O)Oc1cccc2c1C(=O)C=CC2=O", "target": "rep main protease", "assay": "enzyme activity, inhibitor", "setting": "1 µM", "inhibition": "101%"}
{"Structure (SMILES)": "O=C(NC1CCC(F)(F)CC1)C(c1cncnc1)N(C(=O)C(F)Cl)c1ccc(OC(F)(F)F)cc1 (centres unmarked)", "target": "rep main protease", "assay": "enzyme activity", "setting": "0.0013 µM", "inhibition": "5.73% and -4.2% and 4.19%"}
{"Structure (SMILES)": "NS(=O)(=O)c1ccc(CCNC(=O)OC(=O)c2ccccc2NC(=O)c2ccco2)cc1", "target": "rep main protease", "assay": "enzyme activity, inhibitor", "setting": "100 µg/mL", "inhibition": "0%"}
{"Structure (SMILES)": "Nc1nnc(SC2CC(=O)N(c3cccc4ccccc34)C2=O)s1 (centres unmarked)", "target": "rep main protease", "assay": "enzyme activity, inhibitor", "setting": "1 µM", "inhibition": "40.7%"}
{"Structure (SMILES)": "COc1ccc2[nH]cc(CCN/C(=N\\C(=O)CSc3nnc(N)s3)Nc3nc(C)cc(C)n3)c2c1", "target": "rep main protease", "assay": "enzyme activity, inhibitor", "setting": "100 µg/mL", "inhibition": "10.5%"}
{"Structure (SMILES)": "O=c1c2ccccc2[se]n1-c1ccncc1F", "target": "rep main protease", "assay": "enzyme activity, inhibitor", "setting": "0.3 µM", "inhibition": "93.7%"}
{"Structure (SMILES)": "O=C(NC1CCN(c2ncnc3[nH]cnc23)CC1)c1cccc(NS(=O)(=O)c2ccc(C(F)(F)F)cc2)c1", "target": "Replicase polyprotein 1ab, nsp14 with nsp10 (rep, Severe acute respiratory syndrome coronavirus 2, UniProt P0DTD1)", "assay": "exonuclease activity", "system": "SARS-CoV-2", "setting": "12.5 µM", "inhibition": "10.4%"}
{"Structure (SMILES)": "COc1cc(Oc2c(O)c(Br)c(C)c(Br)c2OC)c(C(=O)O)c(C)c1O", "target": "rep main protease", "assay": "enzyme activity, inhibitor, FRET", "setting": "10 µM", "inhibition": "32.5%"}
{"Structure (SMILES)": "CC1(C)C2CCC(CNC(=O)c3ccccc3[Se][Se]c3ccccc3C(=O)NCC3CCC4CC3C4(C)C)C1C2 (centres unmarked)", "target": "rep main protease", "assay": "enzyme activity, inhibitor", "setting": "40 µM, mean of repeats", "inhibition": "69%"}
{"Structure (SMILES)": "CC(NC(=O)C(Cc1ccccc1)NC(=O)OCc1ccccc1)C(=O)CF (centres unmarked)", "target": "rep main protease", "assay": "enzyme activity, inhibitor", "setting": "57.5 µM", "inhibition": "88.7%"}
{"Structure (SMILES)": "CC(=O)N1CSC[C@H]1C(=O)NCC(=O)OCCN1C(=O)CCC1=O", "target": "rep main protease", "assay": "enzyme activity, inhibitor", "setting": "up to 400 µM", "inhibition": "no inhibition"}
{"Structure (SMILES)": "O=c1c2ccccc2[se]n1-c1cccc(C(F)(F)F)c1", "target": "rep main protease", "assay": "enzyme activity, inhibitor", "setting": "0.3 µM", "inhibition": "19.2%"}
{"Structure (SMILES)": "O=C(/C=C/c1ccc(Cl)cc1)OCC(=O)c1ccc(Br)cc1", "target": "rep main protease", "assay": "enzyme activity, inhibitor", "setting": "100 µM", "inhibition": "100%"}
{"Structure (SMILES)": "CCOC(=O)[C@H](C(C)C)n1[se]c2ccccc2c1=O", "target": "rep main protease", "assay": "enzyme activity, inhibitor", "setting": "40 µM", "inhibition": "105%"}
{"Structure (SMILES)": "COc1ccc(-c2cc(=O)c3c(O)cc(O)cc3o2)cc1Oc1ccc(-c2cc(=O)c3c(O)cc(O)cc3o2)cc1", "target": "rep papain-like protease", "assay": "enzyme activity, inhibitor", "setting": "5 µM", "inhibition": "≥ 50%"}
{"Structure (SMILES)": "C[C@](C(=O)NC1CCOCC1)(c1cncnc1)N(C(=O)[C@H](F)Cl)c1ccc(OC(F)(F)Cl)cc1", "target": "rep main protease", "assay": "enzyme activity, inhibitor", "setting": "3.333 µM", "inhibition": "98.9%"}
{"Structure (SMILES)": "c1ccc(C[Se][Se]Cc2ccccc2)cc1", "target": "rep main protease", "assay": "enzyme activity, inhibitor", "setting": "40 µM", "inhibition": "76.2% and 74%"}
{"note": "A few entries again:"}
{"Structure (SMILES)": "CC(=O)Nc1ccc(-c2cnc(N3C(=O)C(Cl)C3c3cc4ccccc4nc3Cl)s2)cc1 (centres unmarked)", "target": "rep papain-like protease", "assay": "enzyme activity, inhibitor", "setting": "100 µM", "inhibition": "100%"}
{"Structure (SMILES)": "O=C(NC1CCN(c2ncnc3[nH]cnc23)CC1)c1cccc(NS(=O)(=O)c2ccc(C(F)(F)F)cc2)c1", "target": "Replicase polyprotein 1ab, nsp14 with nsp10 (rep, Severe acute respiratory syndrome coronavirus 2, UniProt P0DTD1)", "assay": "exonuclease activity", "system": "SARS-CoV-2", "setting": "12.5 µM", "inhibition": "10.4%"}
